Measurements from different studies.
Every numbered part comes from another study and shows a few of its results, in no order.
Chain of UniProt P08581 (whole entry, looked up): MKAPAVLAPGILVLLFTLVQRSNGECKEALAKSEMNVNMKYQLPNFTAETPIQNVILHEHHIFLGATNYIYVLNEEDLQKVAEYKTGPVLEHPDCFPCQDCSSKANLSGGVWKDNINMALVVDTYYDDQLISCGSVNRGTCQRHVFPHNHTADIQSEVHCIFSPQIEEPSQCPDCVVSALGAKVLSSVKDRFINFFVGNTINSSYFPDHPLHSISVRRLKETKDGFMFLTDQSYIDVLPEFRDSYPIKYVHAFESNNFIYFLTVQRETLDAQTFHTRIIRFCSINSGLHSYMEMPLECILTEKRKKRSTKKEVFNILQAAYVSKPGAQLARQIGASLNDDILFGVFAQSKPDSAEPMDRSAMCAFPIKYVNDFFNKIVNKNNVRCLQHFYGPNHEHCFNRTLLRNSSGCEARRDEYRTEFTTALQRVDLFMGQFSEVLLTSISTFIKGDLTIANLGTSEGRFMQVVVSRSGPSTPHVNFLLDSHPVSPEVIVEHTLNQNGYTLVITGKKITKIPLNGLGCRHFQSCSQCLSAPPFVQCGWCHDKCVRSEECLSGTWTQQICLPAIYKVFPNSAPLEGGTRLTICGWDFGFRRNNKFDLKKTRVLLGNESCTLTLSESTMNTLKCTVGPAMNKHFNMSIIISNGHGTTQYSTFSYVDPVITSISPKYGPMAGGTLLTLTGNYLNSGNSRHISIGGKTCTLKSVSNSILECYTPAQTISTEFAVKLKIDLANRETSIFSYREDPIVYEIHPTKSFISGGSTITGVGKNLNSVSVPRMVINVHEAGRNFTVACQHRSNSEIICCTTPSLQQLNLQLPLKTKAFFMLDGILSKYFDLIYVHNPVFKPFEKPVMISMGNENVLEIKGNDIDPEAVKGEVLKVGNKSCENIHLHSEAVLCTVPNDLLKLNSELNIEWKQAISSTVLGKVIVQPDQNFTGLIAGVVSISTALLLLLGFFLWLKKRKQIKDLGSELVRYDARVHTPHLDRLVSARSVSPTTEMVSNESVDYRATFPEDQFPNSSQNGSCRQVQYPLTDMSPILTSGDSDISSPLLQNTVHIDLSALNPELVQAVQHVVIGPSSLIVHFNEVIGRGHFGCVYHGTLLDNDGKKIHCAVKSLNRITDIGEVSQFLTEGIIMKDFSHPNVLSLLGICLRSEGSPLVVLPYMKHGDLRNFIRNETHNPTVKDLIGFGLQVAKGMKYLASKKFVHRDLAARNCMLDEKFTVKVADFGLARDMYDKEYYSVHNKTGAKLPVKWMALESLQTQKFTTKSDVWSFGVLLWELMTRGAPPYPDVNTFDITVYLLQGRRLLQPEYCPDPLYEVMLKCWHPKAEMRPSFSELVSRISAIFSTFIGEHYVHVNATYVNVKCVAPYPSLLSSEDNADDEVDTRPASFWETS
Chain of UniProt P46734 (whole entry, looked up): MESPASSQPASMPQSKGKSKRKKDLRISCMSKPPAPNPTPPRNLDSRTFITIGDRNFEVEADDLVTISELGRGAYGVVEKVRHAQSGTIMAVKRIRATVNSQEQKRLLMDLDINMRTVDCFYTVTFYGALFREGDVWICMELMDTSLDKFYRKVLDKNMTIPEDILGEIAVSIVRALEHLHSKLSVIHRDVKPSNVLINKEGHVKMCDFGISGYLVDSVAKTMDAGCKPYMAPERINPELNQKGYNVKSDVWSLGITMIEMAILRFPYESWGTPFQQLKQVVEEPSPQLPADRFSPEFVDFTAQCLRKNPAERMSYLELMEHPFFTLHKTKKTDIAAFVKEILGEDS
Chain of UniProt O14965 (whole entry, looked up): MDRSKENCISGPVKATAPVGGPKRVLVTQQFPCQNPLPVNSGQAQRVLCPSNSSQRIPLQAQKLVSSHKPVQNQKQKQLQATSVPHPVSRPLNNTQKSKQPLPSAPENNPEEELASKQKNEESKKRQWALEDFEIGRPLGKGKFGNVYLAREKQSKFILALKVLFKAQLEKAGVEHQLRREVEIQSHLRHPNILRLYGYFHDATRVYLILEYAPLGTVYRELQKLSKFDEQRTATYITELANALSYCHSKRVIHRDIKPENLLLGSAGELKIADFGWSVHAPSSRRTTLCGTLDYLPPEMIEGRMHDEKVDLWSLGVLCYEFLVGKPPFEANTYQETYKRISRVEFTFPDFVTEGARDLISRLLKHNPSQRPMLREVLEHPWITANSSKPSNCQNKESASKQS
Chain of UniProt Q96L34 (whole entry, looked up): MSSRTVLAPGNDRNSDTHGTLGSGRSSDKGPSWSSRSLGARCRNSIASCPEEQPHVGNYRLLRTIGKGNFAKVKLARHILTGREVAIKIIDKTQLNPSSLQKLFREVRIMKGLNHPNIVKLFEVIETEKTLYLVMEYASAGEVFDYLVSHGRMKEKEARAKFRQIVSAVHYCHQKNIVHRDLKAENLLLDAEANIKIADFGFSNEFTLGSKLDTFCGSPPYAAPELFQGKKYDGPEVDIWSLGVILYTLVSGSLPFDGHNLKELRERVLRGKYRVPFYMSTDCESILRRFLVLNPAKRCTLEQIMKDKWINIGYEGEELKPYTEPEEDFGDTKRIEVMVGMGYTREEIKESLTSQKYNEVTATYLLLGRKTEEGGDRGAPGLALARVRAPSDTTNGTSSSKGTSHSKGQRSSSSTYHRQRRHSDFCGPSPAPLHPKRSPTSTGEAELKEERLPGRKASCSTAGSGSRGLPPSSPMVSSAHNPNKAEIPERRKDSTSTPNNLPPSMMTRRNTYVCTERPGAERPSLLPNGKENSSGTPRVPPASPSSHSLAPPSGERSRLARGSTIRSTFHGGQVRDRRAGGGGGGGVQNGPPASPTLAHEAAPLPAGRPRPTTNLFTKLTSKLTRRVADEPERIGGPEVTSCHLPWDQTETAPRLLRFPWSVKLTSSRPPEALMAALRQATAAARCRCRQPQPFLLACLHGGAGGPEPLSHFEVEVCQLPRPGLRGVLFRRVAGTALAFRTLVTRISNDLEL
Chain of UniProt Q13523 (whole entry, looked up): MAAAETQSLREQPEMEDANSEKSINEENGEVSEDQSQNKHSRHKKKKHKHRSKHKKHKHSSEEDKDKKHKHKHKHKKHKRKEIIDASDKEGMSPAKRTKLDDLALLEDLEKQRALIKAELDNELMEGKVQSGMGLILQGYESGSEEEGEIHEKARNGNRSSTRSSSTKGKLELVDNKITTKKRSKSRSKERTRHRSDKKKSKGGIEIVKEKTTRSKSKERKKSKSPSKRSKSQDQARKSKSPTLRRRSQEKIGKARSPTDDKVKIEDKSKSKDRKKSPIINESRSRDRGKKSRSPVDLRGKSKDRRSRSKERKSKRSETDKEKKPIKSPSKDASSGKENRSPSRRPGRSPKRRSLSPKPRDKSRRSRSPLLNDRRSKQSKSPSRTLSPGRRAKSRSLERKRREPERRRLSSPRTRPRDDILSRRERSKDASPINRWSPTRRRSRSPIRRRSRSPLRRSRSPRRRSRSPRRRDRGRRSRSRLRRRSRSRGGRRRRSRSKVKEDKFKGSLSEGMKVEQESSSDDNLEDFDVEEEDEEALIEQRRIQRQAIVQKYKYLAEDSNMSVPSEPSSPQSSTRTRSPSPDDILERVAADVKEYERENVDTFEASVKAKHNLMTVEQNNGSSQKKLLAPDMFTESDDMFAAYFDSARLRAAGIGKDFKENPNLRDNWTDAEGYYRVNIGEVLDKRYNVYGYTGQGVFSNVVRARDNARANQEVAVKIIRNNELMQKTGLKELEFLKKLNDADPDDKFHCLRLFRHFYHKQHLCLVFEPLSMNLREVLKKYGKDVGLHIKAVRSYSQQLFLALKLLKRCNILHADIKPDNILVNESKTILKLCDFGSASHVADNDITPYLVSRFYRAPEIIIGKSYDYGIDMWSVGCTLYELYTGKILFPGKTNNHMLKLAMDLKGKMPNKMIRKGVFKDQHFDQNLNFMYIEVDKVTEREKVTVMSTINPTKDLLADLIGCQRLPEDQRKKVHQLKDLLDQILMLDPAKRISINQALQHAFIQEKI
Chain of UniProt Q00526 (whole entry, looked up): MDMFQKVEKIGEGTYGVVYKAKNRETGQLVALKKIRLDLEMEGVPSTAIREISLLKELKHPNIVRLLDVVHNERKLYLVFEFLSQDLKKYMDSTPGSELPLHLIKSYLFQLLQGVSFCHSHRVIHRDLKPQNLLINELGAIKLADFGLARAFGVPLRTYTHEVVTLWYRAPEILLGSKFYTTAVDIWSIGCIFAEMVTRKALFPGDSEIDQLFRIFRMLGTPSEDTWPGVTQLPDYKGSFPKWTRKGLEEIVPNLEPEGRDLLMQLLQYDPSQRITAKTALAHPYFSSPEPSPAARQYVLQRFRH

Sample 1
Target: Calcium/calmodulin-dependent protein kinase type II subunit alpha (CAMK2A, Homo sapiens, UniProt Q9UQM7)
Chain of UniProt Q9UQM7 (whole entry, looked up): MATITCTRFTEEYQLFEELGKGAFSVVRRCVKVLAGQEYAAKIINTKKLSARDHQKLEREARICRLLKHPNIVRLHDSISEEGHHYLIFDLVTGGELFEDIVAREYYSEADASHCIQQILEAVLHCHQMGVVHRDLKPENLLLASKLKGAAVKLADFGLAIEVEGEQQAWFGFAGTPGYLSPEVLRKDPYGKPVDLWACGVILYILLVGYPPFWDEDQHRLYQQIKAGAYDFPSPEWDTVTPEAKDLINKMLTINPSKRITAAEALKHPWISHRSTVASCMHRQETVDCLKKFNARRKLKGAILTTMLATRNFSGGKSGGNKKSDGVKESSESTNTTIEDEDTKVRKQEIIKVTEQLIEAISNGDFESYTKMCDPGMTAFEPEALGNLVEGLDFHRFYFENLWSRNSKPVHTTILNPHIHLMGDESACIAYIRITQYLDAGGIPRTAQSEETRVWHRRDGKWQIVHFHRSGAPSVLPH
Observed: enzyme activity
Action: inhibitor
Concentration: 10 µM
With `Cn1cncc1CCN` the inhibition was -15%.
The inhibition of `CC(=O)[C@H]1CC[C@H]2[C@@H]3CC[C@H]4CC(=O)CC[C@]4(C)[C@H]3CC[C@]12C` is reported as -8%.
`CC(=O)O[C@@H]1C2[C@H]3C[C@H]4C5=Nc6ccccc6[C@]51C[C@@H]2N4[C@@H](C)[C@@H]3C=O` (stereo partly shown) has an inhibition of -13%.

Sample 2
Target: His6 tag
Technique: AlphaScreen counter screen
Concentration: concentration not given
The inhibition of `Nc1ncnc2c1ncn2[C@@H]1O[C@H](COP(=O)(O)CP(=O)(O)O)[C@@H](O)[C@H]1O` is reported as 4.5%.
`COc1cccc(N2C(=O)NC(=O)C(=CNc3ccc(F)cc3)C2=O)c1` gave an inhibition of -3.45%.
`COC(=O)c1ccc(NC=C2C(=O)NC(=O)N(C)C2=O)cc1` gave an inhibition of 3.45%.
The inhibition of `COC[C@H]1OC(=O)c2coc3c2[C@@]1(C)C1=C(C3=O)[C@@H]2CCC(=O)[C@@]2(C)C[C@H]1OC(C)=O` is reported as 5%.

Sample 3
SMILES: CNC(=O)c1ccc(-c2cnn3ccc(C(=O)N(C)c4ccc(Cl)c(C(=O)O)c4)cc23)cc1
For Aurora kinase A (AURKA, Homo sapiens, UniProt O14965); enzyme activity, inhibitor: IC50 read 15 µM.
It gave > 30 µM for IC50 (MAP2K3 (Homo sapiens, UniProt P46734); enzyme activity, inhibitor).
TGFBR1 (Homo sapiens, UniProt P36897); enzyme activity, inhibitor — IC50: > 30 µM.
The IC50 was > 30 µM (KDR (Homo sapiens, UniProt P35968); enzyme activity, inhibitor).
PKN2 (Homo sapiens, UniProt Q16513); enzyme activity, inhibitor — IC50: > 30 µM.
ROCK2 (Homo sapiens, UniProt O75116); enzyme activity, inhibitor — IC50: > 30 µM.
The IC50 was > 30 µM (RPS6KB1 (Homo sapiens, UniProt P23443); enzyme activity, inhibitor).
ZAP70 (Homo sapiens, UniProt P43403); enzyme activity, inhibitor — IC50: > 30 µM.
For SYK (Homo sapiens, UniProt P43405); enzyme activity, inhibitor: IC50 read > 30 µM.
It gave > 30 µM for IC50 (PRKAA2 (Homo sapiens, UniProt P54646); enzyme activity, inhibitor).
For SLC6A2 (Homo sapiens, UniProt P23975); cell-free assay: IC50 read > 30 µM.
MET (Homo sapiens, UniProt P08581); enzyme activity, inhibitor — IC50: > 30 µM.
For ERBB2 (Homo sapiens, UniProt P04626); enzyme activity, inhibitor: IC50 read > 30 µM.
For ADRA2A (Homo sapiens, UniProt P08913); cell-free assay: IC50 read > 30 µM.
For CHRM2 (Homo sapiens, UniProt P08172); cell-free assay: IC50 read > 30 µM.
The IC50 was > 30 µM (PRKCA (Homo sapiens, UniProt P17252); enzyme activity, inhibitor).
It gave > 30 µM for IC50 (Prothrombin (F2, Homo sapiens, UniProt P00734); cell-free assay).

Sample 4
SMILES: N#CC1(c2ccccn2)CCN(Cc2cc(C(=O)O)c(=O)n3ccccc23)CC1
Observed: cell-free assay
Technique: competition with immobilised ligand
Concentration: 1 µM
For ULK1 (Homo sapiens, UniProt O75385): remaining binding read 76%.
It gave 89% for remaining binding (EPHA5 (Homo sapiens, UniProt P54756)).
For MARK4 (Homo sapiens, UniProt Q96L34): remaining binding read 98%.
The remaining binding was 93% (GRK2 (Homo sapiens, UniProt P25098)).
For RIOK2 (Homo sapiens, UniProt Q9BVS4): remaining binding read 92%.
For MET (Homo sapiens, UniProt P08581): remaining binding read 84%.
The remaining binding was 100% (NEK9 (Homo sapiens, UniProt Q8TD19)).
The remaining binding was 100% (CDK18 (Homo sapiens, UniProt Q07002)).
The remaining binding was 70% (PIK3C3 (Homo sapiens, UniProt Q8NEB9)).
For Tyrosine-protein kinase ABL1, non-phosphorylated (ABL1, Homo sapiens, UniProt P00519, H396P): remaining binding read 80%.
The remaining binding was 100% (STK4 (Homo sapiens, UniProt Q13043)).
It gave 97% for remaining binding (PIKFYVE (Homo sapiens, UniProt Q9Y2I7)).
It gave 98% for remaining binding (Tyrosine-protein kinase ABL1, non-phosphorylated (ABL1, Homo sapiens, UniProt P00519)).
EGFR (Homo sapiens, UniProt P00533, L861Q) — remaining binding: 100%.
It gave 80% for remaining binding (MAP4K3 (Homo sapiens, UniProt Q8IVH8)).
The remaining binding was 100% (VRK2 (Homo sapiens, UniProt Q86Y07)).
The remaining binding was 100% (PRPF4B (Homo sapiens, UniProt Q13523)).
PDPK1 (Homo sapiens, UniProt O15530) — remaining binding: 100%.
For PRKD2 (Homo sapiens, UniProt Q9BZL6): remaining binding read 99%.
DYRK2 (Homo sapiens, UniProt Q92630) — remaining binding: 95%.
For STK32C (Homo sapiens, UniProt Q86UX6): remaining binding read 72%.
It gave 99% for remaining binding (CDK3 (Homo sapiens, UniProt Q00526)).
The remaining binding was 96% (CDC42BPB (Homo sapiens, UniProt Q9Y5S2)).
KIT (Homo sapiens, UniProt P10721, V559D) — remaining binding: 100%.
It gave 100% for remaining binding (STK17B (Homo sapiens, UniProt O94768)).

Sample 5
Cell line: Huh-7
Concentration: 10 µM
Time: 24 h
The viability of `C[C@@H]1[C@H](O)[C@@H](C)/C=C/C=C/CC/C=C/C=C/C=C/C=C/[C@H](O[C@@H]2O[C@H](C)[C@@H](O)[C@H](N)[C@@H]2O)C[C@@H]2O[C@](O)(C[C@@H](O)[C@H](O)CC[C@@H](O)C[C@@H](O)C[C@@H](O)CC(=O)O[C@H]1C)C[C@H](O)[C@H]2C(=O)O` is reported as 98.1%.
The viability of `CC(=O)Nc1cc([As](=O)(O)O)ccc1O` is reported as 103%.
The viability of `OC1CCCCC1N1CCC(c2ccccc2)CC1` (stereo not shown) is reported as 101%.
